Results from different studies.
Parts stem from different laboratories: compare values within a part only.

Study 1
Target: RNA binding protein fox-1 homolog 2, RRM domain, GST-SBP tag (RBFOX2, Homo sapiens, UniProt O43251-10, residues 100-194)
Technique: RNA Bind-n-Seq
Molecule type: RNA
Matrix: in vitro
Concentration: 365 nM
Setting: natural RNA segment, single round, ends assumed
Reference: no-protein control
Direction: higher = stronger binding
Target sequence (chain): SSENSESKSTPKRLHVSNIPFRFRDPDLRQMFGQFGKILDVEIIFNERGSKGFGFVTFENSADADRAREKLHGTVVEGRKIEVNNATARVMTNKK
Sequence	RBNS enrichment (R)
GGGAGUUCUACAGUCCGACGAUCCAUUUCUUGAACAGUCUGUGAAUAUGCCUGUGUGGACGCUGUAUCCUGCUGCUGUCCCUCUCCUGGUCUCUCACACUGCAUGGCCUCCUAUCACUGUGAAUUGUGGCCUGUGGAAUUCUCGGGUGCCAA	2.07
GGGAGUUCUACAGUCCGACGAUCGAGCUGAGAGUGGGCCUGGGAAAGGCUGUAGGGAAGGAGUGAAGCUGUCACUGAAAUGAACUUGAUCUUGAUCUGCUUUGAUAUGGGGACAGAAUCCCCGACUGCACUAUUGGAAUUCUCGGGUGCCAA	2.07
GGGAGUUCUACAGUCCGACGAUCCGAGAUGGAUCAGGGAGUUCUAGCUGCACACACCCCGAGCGCCUGAGCCCUCAGAAUGCCCACCAUGCACACAGAGACUCCAUUCUCCCCAGGACCAAGUCCUCUGCUGUUGGAAUUCUCGGGUGCCAA	0.356
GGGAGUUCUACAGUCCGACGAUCAAUUCAUUCAUUCACUCUGCUCAAGACUCCACUGGGCCAAGAGAUGGAAGAACAAACAAAAAGGACUUUCCAUGUAGCCUUCCUCCAUGUGGCCUAGUGAAACAUGGAUCUGGAAUUCUCGGGUGCCAA	0.22
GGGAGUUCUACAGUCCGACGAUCCUUCAAUCCAGCUUUCCCCCUUCUUGUUUGCACAUGCCAAGAUAACUGCUUUUAUGCAGGCUUUACCCCUGAAAAACUCCUUUCUACAGUGCUGCUCACGAGAGCCCAGCUGGAAUUCUCGGGUGCCAA	0.411
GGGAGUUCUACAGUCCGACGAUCAUCUGGCCCAAAUGAAGCAUACCCUGUCACGCCCUUGGGAAAACAAAUAGGACCGAACAAAGCUACAUGAACACACCUGCUGUAGAGUUGAGGGGACCUCUCACCUGGUCUGGAAUUCUCGGGUGCCAA	0.662
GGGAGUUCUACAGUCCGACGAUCGUGUCCACAAAUCUGAAUAUUAGGGGCAUGAAAUUAGGCUUACCAUCUGAUUUGUAAUUACAAUUUUGGAAUUCUCUGUUUUAGUUGCUGAGGCCUGAGUUUUCUGGCUCUGGAAUUCUCGGGUGCCAA	2.85
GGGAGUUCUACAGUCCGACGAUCCUCGUCUUUAGAAAGCUGUUUGAAUUCCCCCCGCCCCCAGUUUGGACCGUGUAGAUAUAACUGGAUAUACGGAUUUUUCUCUUUGUGCAGGCUUCUUAUGCCGUUGGUAUUGGAAUUCUCGGGUGCCAA	0.402
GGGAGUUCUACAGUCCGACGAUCCCUGCAGAGCCAUAGCUUCAAUGUUCUAAGAUCACUGUGACUGGUCAGGAGGACAGGACGCUGCUUUAGGGAAGUAUCAAAUUCCGUAUUGAAGAAAAGCUUUCAGAGGGUGGAAUUCUCGGGUGCCAA	0.398
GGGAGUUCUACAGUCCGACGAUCAGGGAGGUCACCCCUCCACUUCAGCUUGCCCUGACCUCCGCUCGCAAACCCCGAGCUUCCAAGCCUUUUGCUCCAGCCCUGCGGCUUCCCCAGAAGCCUGGGCUUAGGGUUGGAAUUCUCGGGUGCCAA	0.467
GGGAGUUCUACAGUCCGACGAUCCCCCGACGCCCCCCUUGGCACAAGUCAGAUGAAGCACGUUCUGCCGGGGAGGCCCUCACCUUCCAGAGAGGACAGACACAGAUUUCCUGCUGGGGGAGGGAGGAGUCCACUGGAAUUCUCGGGUGCCAA	1.43
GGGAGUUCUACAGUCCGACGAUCCAAAUGACUGCACUAUAUGUAUGCAUACGGCCACUUUUGAUUGCUGCGCCCCUUCUGAGUAGUCUUUGACAAUGUGUUGUGUUCCCCGAUGUCGACUUGAUUUCCUUUUAUGGAAUUCUCGGGUGCCAA	0.607

Study 2
Target: RING finger protein unkempt homolog, zinc fingers 1-6, GST-SBP tag (UNK, Homo sapiens, UniProt Q9C0B0, residues 30-357)
Technique: RNA Bind-n-Seq
Molecule type: RNA
Matrix: in vitro
Concentration: not given
Setting: RNA with constant flanks, human-mouse chimeric sites, ends assumed
Reference: input RNA pool
Direction: higher = stronger binding
Residues (chain): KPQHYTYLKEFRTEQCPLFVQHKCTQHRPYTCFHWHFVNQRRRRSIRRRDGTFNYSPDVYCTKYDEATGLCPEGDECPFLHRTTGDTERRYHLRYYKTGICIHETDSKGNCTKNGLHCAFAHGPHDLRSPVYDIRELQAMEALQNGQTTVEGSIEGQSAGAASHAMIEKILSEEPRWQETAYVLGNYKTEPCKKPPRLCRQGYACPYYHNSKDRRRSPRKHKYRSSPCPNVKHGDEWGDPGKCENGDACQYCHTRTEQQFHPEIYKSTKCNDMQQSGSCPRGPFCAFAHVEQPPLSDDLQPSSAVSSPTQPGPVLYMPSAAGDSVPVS
Sequence	bound/input enrichment
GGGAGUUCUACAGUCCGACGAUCAGAGAUAAGACAUCCAGGAACAUGCGAGGCUCCCGGAUGAAUGGGUUGCCUAGCCCCACUCAUAGUGCCCACUGUAGCUUCUACAGAACCAGAACCUUGCAGGCACUGAGUAAUGAGAAGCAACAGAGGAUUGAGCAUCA	0.0907 ratio
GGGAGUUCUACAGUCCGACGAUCGUAUUUGUGCGCUCCCCACUCGUGUUUUUAAGUGUAUUUUUAUAAGAUACAUGUAUUUGUAAUAGAUCUUUUGUUACAUAAUGCUGAAAUGCUACUGGAGAUUAUGAAAAAUGUUUCAAUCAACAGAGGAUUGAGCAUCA	0.412 ratio
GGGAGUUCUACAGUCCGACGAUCUAAGUCCUGUGCCAGCACUUCGCUCAUAAAGUUUUAAAUUCUGGACCAAUAGUGUUUAUCUUUAGAAUAUUGUAUCCAAUACUUUGCCUAGUAUGUAACUCAUGCUUACUGAUAAUAAAACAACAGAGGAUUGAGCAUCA	4.34 ratio
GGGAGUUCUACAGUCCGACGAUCGAGUCGAGCAAACUUGAAACUACAGAAUAUCUUGCAGCCUCAGUGUUCACUUGCUUGGCGAUAGCAUAUUGGGAUUUUAGGUUCUGGAAGGAGAACUGACGAUGAUGCUGCCGCUGCUGCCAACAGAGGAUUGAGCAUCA	0.577 ratio
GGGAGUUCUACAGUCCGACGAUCGUUGCCAGCUUCCGGUUCCGUUGGGCUCGGUUCUCUCAGUGCUACGUGUCCCUGGCACUCUCAAUCCGCCAUCCAACAAACAUGGAUCAGGUAAUGCAGUUUGUGGAGCCCAGCCGGCAGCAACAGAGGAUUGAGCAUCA	0.092 ratio
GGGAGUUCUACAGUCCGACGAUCCAGCCUCAGAGCCCAGACUUCCUGGAUAUUACCAACCCCAAAGCCGUAUUAGAAAACGCAUUGAGAAACUUCGCCUGUCUGACGACUGGAGAUGUGAUUGCUAUCAACUACAAUGAGAAGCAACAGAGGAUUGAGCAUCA	0.401 ratio
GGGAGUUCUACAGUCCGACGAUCUCUGAGGUACCACUGAAGAGACCUUAAAAGAAUCAUUUGAGGGCUCUGUUCGUGCAAGAAUAGUCACUGAUCGGGAAAACUGGGUCCCCAAAGGGUUUGGUUUUGUAGACUUUAAUAGUGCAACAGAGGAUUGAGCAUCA	0.714 ratio
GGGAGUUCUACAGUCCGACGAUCUUAAUCCCCUUCGUUGCUCCCCCACUUCUCAUGGUAAUAACAAAGUCUUAUAUUCCCGUCCUAGCUUUCACUCAGAUGGCUUAUGGAGCCGGUUUCCUAGCUUUCUUGGGAGGGAUCAGACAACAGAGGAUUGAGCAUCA	0.388 ratio
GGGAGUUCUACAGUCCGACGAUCUCUUAACUUAUUCAUUUCUUAUUUUUAUAGCACUUAGUAAAUAUUGUUAGUCUUAGACAAUAGCUCACAUUUUUUGAGAAGCAUGCCCUCCCUGUCCAUUUGUCUUAUAACAUGACCCAGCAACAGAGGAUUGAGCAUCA	361 ratio
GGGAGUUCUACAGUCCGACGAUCUAUAUCACCAAUGUUCUACAAAAUCCUGACUUGGCUCUGAGAAUGGCUGUACGUAAUAACUUAGCUGGUGCUGAAGAACUCUUUGCCCGGAAAUUUAAUGCUCUCUUCGCCCAGGGAAACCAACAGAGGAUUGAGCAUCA	0.529 ratio
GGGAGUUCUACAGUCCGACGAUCUUUGUAUUUAUGCUAAGCACACGUGCUGGUGGUCUGGGCAUCAAUCUUGCAACUGCUGAUGUAGUCAUUUUAUAUGACUCAGAUUGGAAUCCGCAAGUAGAUCUUCAGGCUAUGGACCGUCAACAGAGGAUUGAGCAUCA	0.112 ratio

Study 3
Target: Ras GTPase-activating protein-binding protein 1, full length (G3BP1, Homo sapiens, UniProt Q13283)
Sequence of UniProt Q13283 (whole entry, looked up): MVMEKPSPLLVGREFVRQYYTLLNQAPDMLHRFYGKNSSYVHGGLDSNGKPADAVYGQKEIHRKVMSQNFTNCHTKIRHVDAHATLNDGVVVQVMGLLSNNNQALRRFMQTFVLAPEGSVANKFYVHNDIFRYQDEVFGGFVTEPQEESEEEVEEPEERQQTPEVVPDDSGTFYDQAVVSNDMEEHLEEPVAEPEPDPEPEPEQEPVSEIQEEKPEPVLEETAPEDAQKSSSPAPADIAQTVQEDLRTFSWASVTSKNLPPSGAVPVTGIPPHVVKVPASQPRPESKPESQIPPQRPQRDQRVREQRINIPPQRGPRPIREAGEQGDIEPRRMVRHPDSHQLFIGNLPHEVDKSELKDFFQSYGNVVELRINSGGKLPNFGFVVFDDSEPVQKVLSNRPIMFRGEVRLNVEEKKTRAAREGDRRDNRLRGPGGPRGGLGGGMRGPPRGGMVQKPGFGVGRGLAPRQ
Technique: RNA Bind-n-Seq
Molecule type: RNA
Matrix: in vitro
Concentration: 200 nM
Setting: whole 134-nt RNA, ends assumed
With: 150 mM KCl
Reference: input library
Direction: higher = stronger binding
Sequence	log2 enrichment
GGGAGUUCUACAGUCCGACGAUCGCCACUGUUCACCAGUCCUACCCACACCAUGCCACACAGCUCCAUGCCCACCAGCCGCAGCCGGCUACCACGCCUACUGGAAGCCAGCCGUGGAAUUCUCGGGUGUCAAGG	-0.217
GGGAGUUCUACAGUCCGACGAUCAGUCCUGUGCUACACAUCGUAUGUACCGAAUCGGGUGGGAAAAAAAGGGAAAAAGGGAAAGUAUUAUGUUACGCCGUUCGGAUCUGCACUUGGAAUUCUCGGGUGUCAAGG	-0.158
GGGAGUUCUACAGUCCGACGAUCCUCAAGUCCUGUGCUACACAUCGUAUGUACCGAAUCGGCCGGGCCGGGCCGGGGAAAGUAUUAUGUUACGCCGUUCGGAUCUGCACUUCCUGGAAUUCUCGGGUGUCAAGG	-0.201
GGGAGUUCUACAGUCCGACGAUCCAAGUCCUGUGCUACACAUCGUAUGUACCGAAUCGGGCCCGGGCCCGGGCCCGGGGAAAGUAUUAUGUUACGCCGUUCGGAUCUGCACUUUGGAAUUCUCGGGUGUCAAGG	-1.67
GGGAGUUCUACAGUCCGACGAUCUCAAGUCCUGUGCUACACAUCGUAUGUACCGAAUCGGGGCCGGCCGGGCCGGGGAAAGUAUUAUGUUACGCCGUUCGGAUCUGCACUUCCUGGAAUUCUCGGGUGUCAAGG	-0.272
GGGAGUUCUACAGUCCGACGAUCUCCUCAAGUCCUGUGCUACACAUCGUAUGUACCGAAUCGGGAGGAGGGGAGGAAAGUAUUAUGUUACGCCGUUCGGAUCUGCACUUCCAGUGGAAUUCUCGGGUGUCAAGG	0.228
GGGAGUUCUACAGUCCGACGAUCAAGUCCUGUGCUACACAUCGUAUGUACCGAAUCGGGUUUUGGGUUUUGGGGUUUUGGAAAGUAUUAUGUUACGCCGUUCGGAUCUGCACUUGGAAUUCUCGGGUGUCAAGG	-0.686
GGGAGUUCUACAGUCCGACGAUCGUGAAUCAAAAACUCUGGUUUUAAGCAACCUCUCCUACAGUGCAACAGAAGAAACUCUUCAGGAAGUAUUUGAGAAAGCAACUUUUAUCAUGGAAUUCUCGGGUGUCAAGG	0.975
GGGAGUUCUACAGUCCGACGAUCUCCUGUGCUACACAUCGUAUGUACCGAAUCGGGCCCCCCGGGCCCCCCGGCCCCCCGGGAAAGUAUUAUGUUACGCCGUUCGGAUCUGCAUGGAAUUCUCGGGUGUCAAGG	-0.67
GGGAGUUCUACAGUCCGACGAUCGGUGAUGGUCAACAAGCCUCAACUGCCUCUGCUACAACUGCCAAGUUCCCCGCGUCCCACCCUCCUCUAGGUGCUCCAAGGGACCACCGGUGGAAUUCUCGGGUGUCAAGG	0.292
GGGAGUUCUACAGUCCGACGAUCUAACUUUAGAGGAGGAUCUGAUGGAUAUGGCAGUGGACGUGGAUUUGGGGAUGGCUAUAAUGGGUAUGGAGGAGGACCUGGAGGUGACAAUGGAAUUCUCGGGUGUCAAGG	0.206
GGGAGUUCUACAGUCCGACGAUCUCAAGUCCUGUGCUACACAUCGUAUGUACCGAAUCGGGUGGGAGGGAAAAAGGGAAAGUAUUAUGUUACGCCGUUCGGAUCUGCACUUCCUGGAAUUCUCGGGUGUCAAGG	0.907
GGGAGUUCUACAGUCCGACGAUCUCCUGUGCUACACAUCGUAUGUACCGAAUCGGGGCCCCCGGGCCCCCGGGCCCCCGGGGAAAGUAUUAUGUUACGCCGUUCGGAUCUGCAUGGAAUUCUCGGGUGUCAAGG	-1.18
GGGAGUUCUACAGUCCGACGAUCAGUCCUGUGCUACACAUCGUAUGUACCGAAUCGGUUUGGAAAAAAAGGAAAAAAAGGAAAGUAUUAUGUUACGCCGUUCGGAUCUGCACUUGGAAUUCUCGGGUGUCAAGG	-1.03

Other studies, line by line
Substance	target	assay	test system	conditions	how to read	quantity	result
PhoQ, residues 284 288 289 292 302 303 SCKMEA	PhoP, residues 12 14 15 18 19 AQALL (Escherichia coli, UniProt P23836)	Sort-seq, measured: YFP reporter	E. coli	PhoQ-PhoP variant library, with: 10 µM Mg2+	reference: high Mg2+ state, higher = stronger signaling	fold induction	14.1
